Measured values pooled from the literature.
Several values in a cell are separate wells, animals, samples, runs or records. ± gives the spread as reported.
Ubiquitin carboxyl-terminal hydrolase 39 ZnF-UBD domain: Ubiquitin carboxyl-terminal hydrolase 39, ZnF-UBD domain (Homo sapiens, UniProt Q53GS9)
Chain of UniProt Q53GS9 (whole entry, looked up): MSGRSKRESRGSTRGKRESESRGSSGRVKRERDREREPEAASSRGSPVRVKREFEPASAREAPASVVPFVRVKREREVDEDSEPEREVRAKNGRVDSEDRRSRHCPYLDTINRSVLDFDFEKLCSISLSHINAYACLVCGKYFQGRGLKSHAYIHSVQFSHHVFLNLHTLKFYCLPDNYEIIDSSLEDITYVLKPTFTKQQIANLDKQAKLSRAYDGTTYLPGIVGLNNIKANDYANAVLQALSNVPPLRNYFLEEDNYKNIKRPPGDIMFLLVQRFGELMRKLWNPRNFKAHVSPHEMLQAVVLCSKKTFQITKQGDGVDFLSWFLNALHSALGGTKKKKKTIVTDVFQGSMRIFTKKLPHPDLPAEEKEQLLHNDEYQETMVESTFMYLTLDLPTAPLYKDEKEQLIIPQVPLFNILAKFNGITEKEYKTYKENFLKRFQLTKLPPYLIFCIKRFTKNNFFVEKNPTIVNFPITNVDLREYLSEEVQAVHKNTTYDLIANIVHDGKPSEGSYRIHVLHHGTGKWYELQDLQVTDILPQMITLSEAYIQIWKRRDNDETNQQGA

SMILES	tested on	test	system	setting	scale	endpoint	result
C[C@H](NC(=O)c1c(C(F)F)nn(C)c1Oc1cccc(C(F)(F)F)c1)c1ccc(C(=O)O)cc1		irRECIST	human, advanced tumours	125 mg		objective response rate	0%
Cn1cc(Nc2nccc(-c3ccc4c(c3)CN(C3COC3)CC[C@H]4NC(=O)c3cn(C(C)(C)C)nn3)n2)cn1		item: Oxidative Ethanol Degradation III	splenic B cells, Mus musculus	30 mg/kg, together with: IgD activation	relative to: vehicle, direction not given	pathway activation z-score	2.24
COc1cc2cc(-c3ccc(CC(=O)Nc4cc(C(C)(C)C(F)(F)F)no4)cn3)cnc2cc1OC		RECIST v1.1	human RET-altered solid tumours	13 100 mg tablets, phase I		objective response rate	50%
NC(=O)c1cnc2[nH]ccc2c1N[C@@H]1[C@@H]2CC3C[C@H]1C[C@@](O)(C3)C2		CD8+ central memory T cells, flow cytometry	Caucasian humans, peripheral blood	200 mg single dose	relative to: baseline	percent change	0.53%
O=C(O)CCc1cnn(-c2ccccc2)c1	Ubiquitin carboxyl-terminal hydrolase 39 ZnF-UBD domain					Kd	> 1 mM
OCC(O)CO		ELISA	male Slc25a13 knockout mice, serum	oral in drinking water, 5 % w/v, 2 days		plasma FGF21 level	369 pg/mL and 1120 pg/mL and 1700 pg/mL and 4310 pg/mL and 401 pg/mL and 728 pg/mL
Cc1cc(C)c(CNC(=O)c2cc(Cl)c3c(c2C)O[C@@](C)([C@H]2CC[C@H](N(C)C)CC2)O3)c(=O)[nH]1		modified 2009 ATLL criteria	human, relapsed/refractory adult T-cell leukaemia-lymphoma	dose not given		best overall response CR	29%
COCCOC(=O)C1=C(C)NC(C)=C(C(=O)OC(C)C)C1c1cccc([N+](=O)[O-])c1 (stereo not shown)		whole-cell current clamp	DRG neurons, naive rat	dose not given, 4 h		action potential threshold	-38.9 mV and -17.2 mV and -30.8 mV and -31 mV and -21.7 mV and -37.6 mV
CN(C)C(=O)Oc1cccc([N+](C)(C)C)c1		neuromuscular block reversal	rat	dose not given, 8.5 (unit not given), together with: cisatracurium	relative to: T1 twitch	train-of-four ratio	65.6
OC(CCN1CCCCC1)(c1ccccc1)C1CC2C=CC1C2 (stereo not shown)		resting-state EEG	healthy elderly humans	oral, 4 mg, eyes open, LS mean		power, Delta EEG, Pz-O1	8.3 µV²
O=C(COc1ccc(Cl)cc1)NC12CC(c3nnc([C@H]4C[C@@H](OC(F)(F)F)C4)o3)(C1)C2			healthy human, PBMC	oral, 200 mg single dose, day 1, 4 h post-dose, median, together with: sodium arsenite ex vivo	relative to: baseline	CHAC1 mRNA change	-54.4%
N#Cc1ccn2c(-c3ccncc3)c(-c3ccc(F)cc3)nc2c1		kinase binding, competitor, MIB/MS competition, item: NIK1	Candida albicans cell lysate	100 nM	relative to: DMSO	log2 fold change	-0.468
Nc1ccn([C@H]2C[C@H](O)[C@@H](COP(=O)(O)OP(=O)(O)O)O2)c(=O)n1		binding, equilibrium dialysis LC-MS		5 µM, thermostabilized A2AR-BRIL construct	relative to: no-protein control, direction not given	z-scored log2 fold change	-1.14
CC(C)(C)C(=O)Oc1ccc(S(=O)(=O)Nc2ccccc2C(=O)NCC(=O)O)cc1			mouse LPS-induced ALI, isolated lungs ex vivo	intratracheal, 2 µmol/kg, dosed 1 h after LPS	relative to: untreated ALI mice	NIRF signal reduction	97%
CCO[C@H]1CCN(Cc2c(OC)cc(C)c3[nH]ccc23)[C@H](c2ccc(C(=O)O)cc2)C1			PNH patients, blood	oral, 50 mg then 200 mg, week 4, mean absolute change	relative to: baseline	PNH RBC clone size	28.5%
COc1cc(O)c(CC=C(C)C)c(O)c1C(=O)/C=C/c1ccc(O)cc1			male Tac:SW mice, conventional and germ-free	in high-fat diet, dose not given	relative to: high-fat diet alone	hepatic and muscle triglycerides	no effect
Cc1ccc([C@@H]2O[C@H](CO)[C@@H](O)[C@H](O)[C@H]2O)cc1Cc1ccc(-c2ccc(F)cc2)s1			Japanese type 2 diabetes patients	25 mg, day 17	relative to: day 1	change in fasting serum insulin	0.8 µU/mL
C[C@H]1C[C@H]2CSC(N)=N[C@@]2(c2nc(NC(=O)c3ccc(OC(F)F)cn3)cs2)CO1		item: Aβx-40	healthy adults, plasma	5 mg once daily, day 7	relative to: placebo	percent change from baseline	-41.1%
NC(N)=O		binding, equilibrium dialysis LC-MS		5 µM, thermostabilized A2AR-BRIL construct	relative to: no-protein control, direction not given	z-scored log2 fold change	0.249
Cc1cc([C@H]2C[C@H]3[C@@H](CF)SC(N)=N[C@@]3(c3ccc(F)cc3F)CO2)on1		item: Aβx-40	wild-type mouse, brain	subcutaneous, 30 mg/kg, 5 h		brain Aβ40 level	2.2 ng/g
NC(=O)c1ccc[n+](C2OC(COP(=O)(O)OP(=O)(O)OCC3OC(n4cnc5c(=O)[nH]cnc54)C(O)C3O)C(O)C2O)c1 (stereo not shown)		binding, equilibrium dialysis LC-MS		5 µM, thermostabilized A2AR-BRIL construct	relative to: no-protein control, direction not given	z-scored log2 fold change	0.131
O=C(c1ccc(OCCN2CCCCC2)cc1)c1c(-c2ccc(O)cc2)sc2cc(O)ccc12			male ICR-CD1 mice	icv, 100 µg/animal, together with: acetic acid 1%		writhing count	41 and 39 and 66 and 54 and 59
C[C@@H](O)CCOC(=O)C[C@@H](C)O		item: C7-DC acylcarnitine	human, plasma	60 min, log2-transformed values		metabolite level	-5.5 ± 0.6 µmol/L
CC[C@@H]1[C@H](F)C(=O)N[C@@H]1COc1nccc2cc(C(N)=O)c(OC)cc12		ATP-site probe binding, ActivX profiling, item: CDK11, CDK8	THP-1 cell lysate	0.04 mM, Lys2 site		inhibition	-11.1%
CC(=O)N[C@H]1[C@@H](OP(=O)(O)OP(=O)(O)OC[C@H]2O[C@@H](n3ccc(=O)[nH]c3=O)[C@H](O)[C@@H]2O)O[C@H](CO)[C@H](O)[C@@H]1O		binding, equilibrium dialysis LC-MS		5 µM, thermostabilized A2AR-BRIL construct	relative to: no-protein control, direction not given	z-scored log2 fold change	0.0789
O=C(O)CNc1ccc2nncn2n1	Ubiquitin carboxyl-terminal hydrolase 39 ZnF-UBD domain					Kd	> 1 mM

SMILES	tested on	test	system	setting	scale	endpoint	result
CN(CCOc1ccc(CC2SC(=O)NC2=O)cc1)c1ccccn1 (racemic)			C57BL/6 mice, diet-induced obese, L4 vertebra			BV/TV	6.7 ± 1.4%
CN(C(=O)n1cnc(-c2ccc[n+]([O-])c2)c1)C1CCCCC1		item: LEA	human, plasma	1.25 mg single dose		AUC(0-t)	227 ng·h/mL
O=C(O)CNC(=O)Cc1ccccc1			ventricular cardiomyocytes, C57BL/6 mouse	dose not given, 0.788 s		sarcomere length	1.71 µm
CC1(C)CCC(c2ccc(Cl)cc2)=C(CN2CCN(c3ccc(C(=O)NS(=O)(=O)c4ccc(N[C@H](CCN5CCOCC5)CSc5ccccc5)c(S(=O)(=O)C(F)(F)F)c4)cc3)CC2)C1		cell killing	canine blood CD3+ T cells, dog 33	24 h		EC50	118 nM
N#CCc1ccc(O)c(Cc2ccc(O)cc2)c1		ABTS radical		300 µg/mL		radical scavenging	79.7 ± 1.52%
NS(=O)(=O)c1nnc(NC(=O)CN2CCC(F)CC2)s1	Alpha-carbonic anhydrase (Enterococcus faecium, UniProt Q3XYE8)	CO2 hydration, inhibitor, stopped-flow kinetics				Ki	29.8 nM
Cc1n[nH]c2ccc(-c3cc(OC[C@@H](N)Cc4ccccc4)cnc3-c3ccoc3)cc12		kinase binding, competitor, MIB/MS competition, item: PKH3	Candida albicans cell lysate	1 µM	relative to: DMSO	log2 fold change	-0.128
CCCCC1(CCCC)CN(c2ccccc2)c2cc(SC)c(OCC(=O)N[C@@H](C(=O)NCC(=O)O)c3ccccc3)cc2S(=O)(=O)C1		item: 7α-hydroxy-4-cholesten-3-one	human	5 mg once daily, 120 h		plasma C4 level	49.7 ng/mL
C[C@H](Oc1ccc(Br)cc1-c1ccon1)C(=O)O		last response peak	human, tibialis anterior muscle	1200 mg, 15 Hz, single ascending dose		difference from placebo	-7.34%
O=C(O)/C=C/CC(=O)O		binding, equilibrium dialysis LC-MS		5 µM, thermostabilized A2AR-BRIL construct	relative to: no-protein control, direction not given	z-scored log2 fold change	0.299
C=CCn1c(=O)c2cnc(Nc3ccc(N4CCN(C)CC4)cc3)nc2n1-c1ccc2c(n1)[C@@](O)(CC)CC2			MDA-MB-436 xenograft, NOD/SCID mouse	oral, 60 mg/kg once daily for 38 days, day 40		tumour volume difference	726 ± 37.6 mm3
COc1ccc(-c2cncc(N[C@@H](C)c3cccc(NC(=O)c4cncc(C)c4)c3)n2)cc1OC		item: rno-miR-143-3p	rat SU5416/hypoxia model, lung	dose not given	relative to: SU5416/hypoxia vehicle	fold change	0.553
NC(N)=NCC(=O)O		binding, equilibrium dialysis LC-MS		5 µM, thermostabilized A2AR-BRIL construct	relative to: no-protein control, direction not given	z-scored log2 fold change	0.276
CN[C@@H]1COc2c(S(=O)(=O)NC(=O)Nc3c4c(cc5c3CCC5)CCC4)cnn2C1		item: IL-1β	human participants, whole blood ex vivo	900 mg twice daily, multiple doses, 12 h, together with: LPS/ATP	relative to: baseline	inhibition	99.5%
c1ccc(-c2n[nH]cc2-c2ccnc3ccccc23)nc1		kinase binding, competitor, MIB/MS competition, item: CMK1	Candida albicans cell lysate	100 nM	relative to: DMSO	log2 fold change	1.39
CC(C)NCC(O)c1ccc(O)c(O)c1 (stereo not shown)			ventricular cardiomyocytes, C57BL/6 mouse	dose not given, 0.416 s		sarcomere length	1.72 µm
CSc1ccc(C(=O)/C=C/c2cc(C)c(OC(C)(C)C(=O)O)c(C)c2)cc1		item: TC, TG, NEFA	C57BL/6 mice, WD/CCl4 MASH model, liver	oral, 30 mg/kg daily, 4 weeks	relative to: model group	hepatic lipid accumulation	decreased
O=Cc1ccc(O)cc1		ABTS radical		300 µg/mL		radical scavenging	21.3 ± 0.88%
O=P(O)(O)C(Cl)(Cl)P(=O)(O)O		immunostaining	mouse, sham-operated, meninges	dose not given, day 7	relative to: total area	Iba1-positive area	0.54%
CO[C@H]1CC[C@H](N2C(=O)CNc3ncc(-c4ccc(C(C)(C)O)nc4)nc32)CC1		flow cytometry	stimulated T cells, human, blood	30 mg single dose, 1.5 h, mean	relative to: baseline	p4EBP1 change from baseline	-40.2%
CC(=O)Oc1cc2c(s1)CCN(C(C(=O)C1CC1)c1ccccc1F)C2 (stereo not shown)		platelet aggregation, light transmission aggregometry	human patients, platelet-rich plasma	dose not given, 3 h, together with: TRAP 5 µM		patients with IPA above 80%	9.5%
CC(=O)N[C@@H](C)C(=O)O		binding, equilibrium dialysis LC-MS		5 µM, thermostabilized A2AR-BRIL construct	relative to: no-protein control, direction not given	z-scored log2 fold change	-0.378
N#Cc1ccc2c(c1)[C@H]1CCCN(C(=O)c3ccc4[nH]cnc4c3)[C@H]1C2		meal tolerance test	human, Phase II trial	20 mg once daily, day 28, AUC0-2 h, adjusted mean	relative to: baseline	insulin AUC change	56 pmol/h/L
CC(C)(C)c1ccc(/C=C/C(=O)Nc2ccc3c(c2)OCCO3)cc1		nociceptive behaviour	mouse	intraplantar, 10 µg, together with: capsaicin 1.6 µg		licking duration	3.7 ± 1.7 s
NC(=O)c1cccnc1		binding, equilibrium dialysis LC-MS		5 µM, thermostabilized A2AR-BRIL construct	relative to: no-protein control, direction not given	z-scored log2 fold change	0.119
N=C(N)NCCC[C@H](NC(=O)[C@H](CCCNC(=N)N)NC(=O)[C@H](CCCCN)NC(=O)[C@H](CCC(N)=O)NC(=O)[C@H](CCCCN)NC(=O)[C@H](Cc1ccc(O)cc1)NC(=O)[C@@H](N)CCCCN)C(=O)N[C@@H](CO)C(=O)N[C@@H](Cc1ccc(O)cc1)C(=O)N[C@@H](CCCCN)C(=O)O			dentin hypersensitivity patients	10 µg/tooth single, day 22	relative to: baseline	median cold water VAS change	-29 mm

For quick reference, copied from above:
SMILES	tested on	test	system	setting	scale	endpoint	result
C[C@@H](O)CCOC(=O)C[C@@H](C)O		item: C7-DC acylcarnitine	human, plasma	60 min, log2-transformed values		metabolite level	-5.5 ± 0.6 µmol/L
CC(=O)N[C@H]1[C@@H](OP(=O)(O)OP(=O)(O)OC[C@H]2O[C@@H](n3ccc(=O)[nH]c3=O)[C@H](O)[C@@H]2O)O[C@H](CO)[C@H](O)[C@@H]1O		binding, equilibrium dialysis LC-MS		5 µM, thermostabilized A2AR-BRIL construct	relative to: no-protein control, direction not given	z-scored log2 fold change	0.0789
CN(C(=O)n1cnc(-c2ccc[n+]([O-])c2)c1)C1CCCCC1		item: LEA	human, plasma	1.25 mg single dose		AUC(0-t)	227 ng·h/mL
NC(=O)c1ccc[n+](C2OC(COP(=O)(O)OP(=O)(O)OCC3OC(n4cnc5c(=O)[nH]cnc54)C(O)C3O)C(O)C2O)c1 (stereo not shown)		binding, equilibrium dialysis LC-MS		5 µM, thermostabilized A2AR-BRIL construct	relative to: no-protein control, direction not given	z-scored log2 fold change	0.131
O=C(O)CNc1ccc2nncn2n1	Ubiquitin carboxyl-terminal hydrolase 39 ZnF-UBD domain					Kd	> 1 mM
COc1cc(O)c(CC=C(C)C)c(O)c1C(=O)/C=C/c1ccc(O)cc1			male Tac:SW mice, conventional and germ-free	in high-fat diet, dose not given	relative to: high-fat diet alone	hepatic and muscle triglycerides	no effect
